Results pooled from the literature.
Each line is one published result; not all experiments were run side by side. pIC50, pKd: −log10 of the molar value.
HLA class I histocompatibility antigen, A alpha chain allele A*01:01: HLA class I histocompatibility antigen, A alpha chain, allele A*01:01 (Homo sapiens, UniProt P04439)
HLA class I histocompatibility antigen, A alpha chain allele A*26:01: HLA class I histocompatibility antigen, A alpha chain, allele A*26:01 (Homo sapiens, UniProt P04439)
HLA class I histocompatibility antigen, A alpha chain allele A*02:01: HLA class I histocompatibility antigen, A alpha chain, allele A*02:01 (Homo sapiens, UniProt P04439)

| SMILES | target | assay | setting | endpoint | value |
| --- | --- | --- | --- | --- | --- |
| CC(C)[C@H](NC(=O)CNC(=O)CNC(=O)[C@@H](NC(=O)[C@H](CO)NC(=O)[C@@H]1CCCN1C(=O)[C@H](C)NC(=O)[C@H](CO)NC(=O)[C@H](CCCCN)NC(=O)[C@@H](N)CCCNC(=N)N)[C@@H](C)O)C(=O)O | HLA class I histocompatibility antigen, A alpha chain, allele A*02:03 (Homo sapiens, UniProt P04439) | binding |  | pIC50 | < 4.41 |
| C[C@H](NC(=O)[C@@H](N)CO)C(=O)N[C@@H](CC(=O)O)C(=O)N[C@@H](CC(N)=O)C(=O)N[C@@H](CC(N)=O)C(=O)N[C@@H](CC(N)=O)C(=O)N[C@@H](CO)C(=O)N[C@@H](CCC(=O)O)C(=O)N[C@@H](Cc1ccc(O)cc1)C(=O)O | HLA class I histocompatibility antigen, A alpha chain allele A*01:01 | binding, fluorescence competition | 2 days, HLA-A*0101, with: 6-FAM-labelled peptide tracer | pKd | 5.17 |
| CC[C@H](C)[C@H](NC(=O)[C@H](CC(C)C)NC(=O)CN)C(=O)N[C@H](C(=O)N[C@@H](CC(C)C)C(=O)N[C@@H](CO)C(=O)N[C@@H](Cc1ccc(O)cc1)C(=O)N[C@@H](Cc1c[nH]cn1)C(=O)N[C@@H](CC(C)C)C(=O)O)[C@@H](C)O | HLA class I histocompatibility antigen, A alpha chain allele A*26:01 | peptide-MHC binding, radioligand competition binding |  | pIC50 | 4.39 |
| CC(C)C[C@H](NC(=O)[C@@H](N)CCCCN)C(=O)N[C@@H](Cc1ccccc1)C(=O)N[C@@H](CO)C(=O)N[C@@H](CCCNC(=N)N)C(=O)N1CCC[C@H]1C(=O)N[C@@H](CC(C)C)C(=O)N[C@H](C(=O)N[C@@H](Cc1ccccc1)C(=O)O)[C@@H](C)O | HLA class I histocompatibility antigen, A alpha chain allele A*02:01 | binding |  | pIC50 | 6.49 |
| C[C@@H](O)[C@H](N)C(=O)NCC(=O)N[C@@H](CCC(N)=O)C(=O)N[C@@H](CC(N)=O)C(=O)N[C@@H](CC(N)=O)C(=O)N[C@@H](CC(N)=O)C(=O)N[C@@H](CO)C(=O)N[C@@H](CC(N)=O)C(=O)N[C@@H](Cc1ccccc1)C(=O)O | HLA class I histocompatibility antigen, A alpha chain allele A*01:01 | binding, fluorescence competition | 2 days, HLA-A*0101, with: 6-FAM-labelled peptide tracer | pKd | 5.44 |
| CC[C@H](C)[C@H](NC(=O)[C@H](CCCNC(=N)N)NC(=O)CNC(=O)[C@@H](NC(=O)[C@@H]1CCCN1C(=O)[C@@H](N)CCSC)[C@@H](C)CC)C(=O)N[C@@H](C)C(=O)N[C@@H](CCC(=O)O)C(=O)N[C@@H](CS)C(=O)N[C@H](C(=O)N[C@@H](CC(C)C)C(=O)O)[C@@H](C)CC | HLA class I histocompatibility antigen, A alpha chain allele A*02:01 | binding, competitor, radioligand competition | two days, room temperature, HLA-A*02:01 | pIC50 | < 4.40 |
| CSCC[C@H](NC(=O)[C@@H](N)Cc1ccc(O)cc1)C(=O)N[C@@H](CC(=O)O)C(=O)N1CCC[C@H]1C(=O)N[C@H](C(=O)N1CCC[C@H]1C(=O)N[C@@H](CC(C)C)C(=O)N[C@@H](CCC(N)=O)C(=O)N[C@@H](Cc1ccccc1)C(=O)O)C(C)C | HLA class I histocompatibility antigen, A alpha chain allele A*01:01 | binding |  | pIC50 | 6.94 |
| CSCC[C@H](NC(=O)[C@H](CCC(=O)O)NC(=O)[C@H](CCC(=O)O)NC(=O)[C@@H](N)CCCNC(=N)N)C(=O)N[C@@H](CCC(=O)O)C(=O)N[C@H](C(=O)N[C@@H](Cc1c[nH]cn1)C(=O)N[C@@H](CCC(=O)O)C(=O)N[C@@H](CC(C)C)C(=O)O)C(C)C | HLA class I histocompatibility antigen, A alpha chain allele A*01:01 | binding, competitor, radioligand competition | two days, room temperature, HLA-A*01:01 | pIC50 | < 4.40 |
| CC[C@H](C)[C@H](NC(=O)[C@@H](N)Cc1c[nH]cn1)C(=O)N[C@@H](Cc1ccccc1)C(=O)N[C@@H](CO)C(=O)N[C@@H](CCCNC(=N)N)C(=O)N1CCC[C@H]1C(=O)N[C@@H](CCSC)C(=O)N[C@H](C(=O)N[C@@H](Cc1ccccc1)C(=O)O)[C@@H](C)O | HLA class I histocompatibility antigen, A alpha chain allele A*02:01 | binding |  | pIC50 | 4.46 |
| CC[C@H](C)[C@H](NC(=O)[C@H](CC(C)C)NC(=O)CNC(=O)[C@H](CCCNC(=N)N)NC(=O)[C@H](CC(C)C)NC(=O)[C@@H](NC(=O)[C@H](CCSC)NC(=O)[C@@H]1CCCN1C(=O)CN)C(C)C)C(=O)N[C@H](C(=O)O)[C@@H](C)O | HLA class I histocompatibility antigen, A alpha chain allele A*26:01 | peptide-MHC binding, radioligand competition binding |  | pIC50 | 6.05 |

A few entries again:
| SMILES | target | assay | setting | endpoint | value |
| --- | --- | --- | --- | --- | --- |
| C[C@H](NC(=O)[C@@H](N)CO)C(=O)N[C@@H](CC(=O)O)C(=O)N[C@@H](CC(N)=O)C(=O)N[C@@H](CC(N)=O)C(=O)N[C@@H](CC(N)=O)C(=O)N[C@@H](CO)C(=O)N[C@@H](CCC(=O)O)C(=O)N[C@@H](Cc1ccc(O)cc1)C(=O)O | HLA class I histocompatibility antigen, A alpha chain allele A*01:01 | binding, fluorescence competition | 2 days, HLA-A*0101, with: 6-FAM-labelled peptide tracer | pKd | 5.17 |
